Assay results pooled from the literature.
± gives the spread as reported.
CHRM1: Muscarinic acetylcholine receptor M1 (CHRM1, Homo sapiens, UniProt P11229)
UniProt P11229, sequence (whole entry, looked up): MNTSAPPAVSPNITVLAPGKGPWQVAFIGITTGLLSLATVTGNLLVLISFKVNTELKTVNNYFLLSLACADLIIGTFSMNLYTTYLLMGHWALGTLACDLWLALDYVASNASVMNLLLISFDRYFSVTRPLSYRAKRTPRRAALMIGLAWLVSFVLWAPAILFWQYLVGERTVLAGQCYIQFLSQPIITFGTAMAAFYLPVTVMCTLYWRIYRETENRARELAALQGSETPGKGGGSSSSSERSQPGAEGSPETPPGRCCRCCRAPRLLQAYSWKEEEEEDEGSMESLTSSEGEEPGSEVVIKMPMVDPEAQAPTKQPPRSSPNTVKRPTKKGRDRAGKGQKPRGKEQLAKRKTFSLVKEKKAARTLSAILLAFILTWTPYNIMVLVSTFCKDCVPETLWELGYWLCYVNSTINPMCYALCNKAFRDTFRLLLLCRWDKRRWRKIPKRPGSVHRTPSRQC
CHRM3: Muscarinic acetylcholine receptor M3 (CHRM3, Homo sapiens, UniProt P20309)
UniProt P20309, sequence (whole entry, looked up): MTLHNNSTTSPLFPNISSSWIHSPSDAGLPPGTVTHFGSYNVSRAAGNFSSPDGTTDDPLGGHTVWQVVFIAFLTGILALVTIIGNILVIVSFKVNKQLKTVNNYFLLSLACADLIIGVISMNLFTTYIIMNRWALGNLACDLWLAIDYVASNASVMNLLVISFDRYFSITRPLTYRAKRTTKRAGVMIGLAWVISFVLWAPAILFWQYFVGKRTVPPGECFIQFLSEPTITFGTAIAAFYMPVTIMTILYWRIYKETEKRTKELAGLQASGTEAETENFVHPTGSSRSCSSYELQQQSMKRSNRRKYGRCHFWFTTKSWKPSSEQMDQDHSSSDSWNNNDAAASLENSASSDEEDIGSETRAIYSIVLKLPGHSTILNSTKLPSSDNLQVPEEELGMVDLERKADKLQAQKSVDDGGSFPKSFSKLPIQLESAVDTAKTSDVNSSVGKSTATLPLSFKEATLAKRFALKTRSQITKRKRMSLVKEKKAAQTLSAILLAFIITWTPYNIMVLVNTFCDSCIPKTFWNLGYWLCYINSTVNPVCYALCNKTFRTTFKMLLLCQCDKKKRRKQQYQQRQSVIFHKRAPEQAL
CASP3: Caspase-3 (CASP3, Homo sapiens, UniProt P42574)
UniProt P42574, sequence (whole entry, looked up): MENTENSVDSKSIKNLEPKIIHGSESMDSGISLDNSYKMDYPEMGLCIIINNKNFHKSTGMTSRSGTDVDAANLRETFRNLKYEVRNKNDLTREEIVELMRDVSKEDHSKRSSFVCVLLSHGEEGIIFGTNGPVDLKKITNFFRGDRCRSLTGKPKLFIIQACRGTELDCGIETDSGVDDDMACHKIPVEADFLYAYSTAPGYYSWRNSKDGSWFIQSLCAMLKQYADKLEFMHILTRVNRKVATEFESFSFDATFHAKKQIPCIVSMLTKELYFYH
UniProt P18031, sequence (whole entry, looked up): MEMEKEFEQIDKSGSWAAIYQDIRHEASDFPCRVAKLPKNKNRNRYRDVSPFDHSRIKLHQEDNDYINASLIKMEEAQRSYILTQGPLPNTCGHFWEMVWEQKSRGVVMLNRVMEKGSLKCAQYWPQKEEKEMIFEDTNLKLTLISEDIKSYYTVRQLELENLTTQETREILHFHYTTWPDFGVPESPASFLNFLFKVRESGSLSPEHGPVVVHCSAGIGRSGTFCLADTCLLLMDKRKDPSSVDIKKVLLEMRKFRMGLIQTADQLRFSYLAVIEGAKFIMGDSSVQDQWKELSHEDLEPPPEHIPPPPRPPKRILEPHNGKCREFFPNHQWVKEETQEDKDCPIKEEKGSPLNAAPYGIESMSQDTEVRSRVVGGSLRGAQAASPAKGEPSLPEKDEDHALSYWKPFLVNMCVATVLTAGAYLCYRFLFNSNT
UniProt Q9Y2K7, sequence (whole entry, looked up): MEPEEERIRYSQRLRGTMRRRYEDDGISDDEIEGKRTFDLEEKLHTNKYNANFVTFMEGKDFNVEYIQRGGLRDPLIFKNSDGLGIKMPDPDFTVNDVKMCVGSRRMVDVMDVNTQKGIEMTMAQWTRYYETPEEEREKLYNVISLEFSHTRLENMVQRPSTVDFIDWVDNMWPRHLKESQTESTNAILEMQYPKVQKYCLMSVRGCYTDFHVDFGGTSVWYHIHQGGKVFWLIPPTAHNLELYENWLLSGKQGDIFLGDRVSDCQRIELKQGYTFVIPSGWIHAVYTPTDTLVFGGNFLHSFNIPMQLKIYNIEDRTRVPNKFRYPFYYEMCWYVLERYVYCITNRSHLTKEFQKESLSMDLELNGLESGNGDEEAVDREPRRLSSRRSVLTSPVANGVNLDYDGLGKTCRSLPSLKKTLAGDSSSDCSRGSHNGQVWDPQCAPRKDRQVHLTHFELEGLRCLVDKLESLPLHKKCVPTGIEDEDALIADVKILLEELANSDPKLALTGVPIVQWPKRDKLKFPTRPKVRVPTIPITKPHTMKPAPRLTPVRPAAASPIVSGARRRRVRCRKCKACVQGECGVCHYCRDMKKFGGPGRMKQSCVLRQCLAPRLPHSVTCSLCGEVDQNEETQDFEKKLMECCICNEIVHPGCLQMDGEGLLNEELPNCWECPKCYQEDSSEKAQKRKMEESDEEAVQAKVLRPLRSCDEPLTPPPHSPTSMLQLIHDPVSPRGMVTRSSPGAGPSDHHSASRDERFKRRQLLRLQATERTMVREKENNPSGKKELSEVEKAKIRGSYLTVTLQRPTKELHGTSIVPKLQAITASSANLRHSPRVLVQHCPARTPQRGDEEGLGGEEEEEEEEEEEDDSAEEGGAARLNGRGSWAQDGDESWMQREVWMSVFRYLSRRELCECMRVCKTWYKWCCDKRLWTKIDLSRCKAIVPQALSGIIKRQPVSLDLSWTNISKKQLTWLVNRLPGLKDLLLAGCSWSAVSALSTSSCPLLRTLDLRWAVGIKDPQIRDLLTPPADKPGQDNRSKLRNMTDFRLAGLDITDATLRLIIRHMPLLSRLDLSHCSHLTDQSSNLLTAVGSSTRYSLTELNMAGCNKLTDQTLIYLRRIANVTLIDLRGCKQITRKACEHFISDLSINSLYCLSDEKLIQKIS
UniProt Q9H227, sequence (whole entry, looked up): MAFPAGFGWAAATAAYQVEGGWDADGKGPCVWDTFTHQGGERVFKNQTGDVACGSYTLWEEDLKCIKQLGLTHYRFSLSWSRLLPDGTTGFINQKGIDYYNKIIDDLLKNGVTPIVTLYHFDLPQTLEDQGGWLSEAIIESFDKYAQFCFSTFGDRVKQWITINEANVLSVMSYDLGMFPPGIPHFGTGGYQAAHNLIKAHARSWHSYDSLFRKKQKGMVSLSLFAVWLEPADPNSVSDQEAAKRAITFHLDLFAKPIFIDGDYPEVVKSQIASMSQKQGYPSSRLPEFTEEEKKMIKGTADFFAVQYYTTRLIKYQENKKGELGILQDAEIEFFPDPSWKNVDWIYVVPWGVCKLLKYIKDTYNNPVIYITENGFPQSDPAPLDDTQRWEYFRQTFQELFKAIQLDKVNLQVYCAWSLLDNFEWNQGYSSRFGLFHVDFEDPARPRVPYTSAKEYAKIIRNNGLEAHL
UniProt P61169, sequence (whole entry, looked up): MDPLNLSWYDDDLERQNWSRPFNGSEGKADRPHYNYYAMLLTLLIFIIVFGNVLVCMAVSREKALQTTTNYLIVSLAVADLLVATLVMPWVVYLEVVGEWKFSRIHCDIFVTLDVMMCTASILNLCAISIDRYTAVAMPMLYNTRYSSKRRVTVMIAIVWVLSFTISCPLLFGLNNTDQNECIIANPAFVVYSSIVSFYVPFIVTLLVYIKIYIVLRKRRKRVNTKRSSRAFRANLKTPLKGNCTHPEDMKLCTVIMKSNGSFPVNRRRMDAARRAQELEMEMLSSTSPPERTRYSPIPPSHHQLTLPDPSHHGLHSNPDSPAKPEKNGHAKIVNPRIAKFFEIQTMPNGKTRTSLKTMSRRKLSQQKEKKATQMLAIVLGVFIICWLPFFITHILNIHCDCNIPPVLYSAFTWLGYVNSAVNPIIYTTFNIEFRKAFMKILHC
UniProt Q9Y3Z3, sequence (whole entry, looked up): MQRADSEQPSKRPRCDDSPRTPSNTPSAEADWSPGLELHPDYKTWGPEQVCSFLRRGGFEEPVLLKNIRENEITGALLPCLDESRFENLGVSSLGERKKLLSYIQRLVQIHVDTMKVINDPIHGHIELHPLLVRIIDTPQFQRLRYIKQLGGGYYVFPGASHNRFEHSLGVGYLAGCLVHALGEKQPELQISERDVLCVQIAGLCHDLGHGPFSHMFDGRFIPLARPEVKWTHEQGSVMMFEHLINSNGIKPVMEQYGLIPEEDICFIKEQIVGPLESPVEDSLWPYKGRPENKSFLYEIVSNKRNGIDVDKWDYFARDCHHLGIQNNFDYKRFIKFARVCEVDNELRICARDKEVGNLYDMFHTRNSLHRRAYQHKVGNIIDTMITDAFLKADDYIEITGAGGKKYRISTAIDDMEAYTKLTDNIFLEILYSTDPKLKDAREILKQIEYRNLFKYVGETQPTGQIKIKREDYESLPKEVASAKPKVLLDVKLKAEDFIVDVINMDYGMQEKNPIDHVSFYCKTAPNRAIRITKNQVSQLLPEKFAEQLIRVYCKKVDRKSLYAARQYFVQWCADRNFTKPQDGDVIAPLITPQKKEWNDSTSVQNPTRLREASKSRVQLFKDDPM
UniProt P48039, sequence (whole entry, looked up): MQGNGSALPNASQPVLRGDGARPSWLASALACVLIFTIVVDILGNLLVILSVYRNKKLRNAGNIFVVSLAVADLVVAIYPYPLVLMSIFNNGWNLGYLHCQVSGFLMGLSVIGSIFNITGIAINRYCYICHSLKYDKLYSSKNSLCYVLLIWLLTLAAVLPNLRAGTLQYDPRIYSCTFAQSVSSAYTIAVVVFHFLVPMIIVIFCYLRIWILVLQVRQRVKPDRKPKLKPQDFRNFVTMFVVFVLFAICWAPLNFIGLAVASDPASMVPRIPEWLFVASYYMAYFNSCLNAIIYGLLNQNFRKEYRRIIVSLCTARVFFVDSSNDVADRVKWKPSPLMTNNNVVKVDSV

Compound | target | effect on | mode | technique | pH | setting | Ki [nM]
NC1CN(CCCCC2CCN(CC(=O)N3c4ccccc4NC(=O)c4ccccc43)CC2)CCN(CC(=O)N2CCC(N3CCC(n4c(=O)[nH]c5ccccc54)CC3)CC2)C1 (stereo not drawn) | CHRM1 | ligand displacement |  | radioligand |  |  | 4.27
O=c1ccn([C@H]2C[C@H](O)[C@@H](CCP(=O)(O)OP(=O)(O)OP(=O)(O)O)O2)c(=O)[nH]1 | SAMHD1 (Homo sapiens, UniProt Q9Y3Z3) |  | inhibitor |  |  |  | 80000 ± 6000
COc1ccc2[nH]c(-c3cccc4ccccc34)c(CCNC(=O)CI)c2n1 | MTNR1A (Homo sapiens, UniProt P48039) | ligand displacement |  | radioligand |  | cell membranes | 85.1
O=c1[nH]cnc2c(CN[C@@H](CO)CCP(=O)(O)O)c[nH]c12 | Hypoxanthine-guanine phosphoribosyltransferase (Trypanosoma cruzi, UniProt Q4DGA3) |  |  |  |  |  | 480 ± 30
CCCCCC[n+]1ccccc1C=Cc1ccc(N(C)C)cc1 | KDM2A (Homo sapiens, UniProt Q9Y2K7) | ligand displacement |  | FP |  |  | 280
CC1(C)C=Cc2c(cc(O)c3c(=O)cc(-c4ccc(O)cc4O)oc23)O1 | PTPN1 (Homo sapiens, UniProt P18031) |  |  | Dixon plot |  |  | 580
CN1CCC=C(c2nsnc2OCCCN2CCN(CCCCC3CCN(CC(=O)N4c5ccccc5NC(=O)c5ccccc54)CC3)CC2)C1 | CHRM3 | ligand displacement |  | radioligand |  |  | 13.2
CC(=O)N[C@H](C(=O)N[C@@H](CC(=O)O)C(=O)N[C@H](CCCCN)C(=O)N[C@H](C(=O)N[C@H](C=O)CC(=O)O)C(C)C)C(C)C | CASP3 | enzyme activity | inhibitor | fluorescence | pH 7 |  | 912
CN1CCC=C(c2nsnc2OCCCCCNC(=O)CCCCCCCCC(=O)NCCCCCOc2nsnc2C2=CCCN(C)C2)C1 | CHRM1 | ligand displacement |  | radioligand |  |  | 3.89
CC(=O)N[C@H](C(=O)NCC(=O)N[C@@H](CCCCN)C(=O)N[C@H](C=O)CC(=O)O)[C@@H](C)O | CASP3 | enzyme activity | inhibitor | fluorescence | pH 7 |  | 3390
CC(C)(C)COCCCCCN1C[C@H](O)[C@@H](O)[C@H](O)[C@H]1CO | GBA3 (Homo sapiens, UniProt Q9H227) | enzyme activity | inhibitor |  |  |  | 27600
Clc1cc(OCCCN2CCN(c3cccc4sccc34)CC2)ccc1CN1CCOCC1 | Drd2 (Rattus norvegicus, UniProt P61169) | cell-free assay |  | radioligand |  |  | 85.6
CCCCOc1ccc(C(=O)OCCN2CC=CCC2)cc1 | CHRM3 | ligand displacement |  | radioligand |  | cell membranes | 7760
CCC(=O)NC1CN(CCCCC2CCN(CC(=O)N3c4ccccc4NC(=O)c4ccccc43)CC2)CCN(CC(=O)N2CCC(N3CCC(n4c(=O)[nH]c5ccccc54)CC3)CC2)C1 (stereo not drawn) | CHRM3 | ligand displacement |  | radioligand |  |  | 589
C[C@H](CCC(=O)NCC(=O)O)[C@H]1CC[C@H]2[C@@H]3[C@H](OC(=O)c4cccnc4)C[C@H]4C[C@H](O)CC[C@]4(C)[C@H]3CC[C@]12C | SLC10A2 (Homo sapiens, UniProt Q12908) | transporter uptake | inhibitor | radiometric |  |  | 15600
